Assay results of several laboratories.
A part holds a random share of what one study measured. Changes are numbered by the printed parent chain.

Study 1 — target: HLF, bZIP domain (human); method: DHFR protein complementation; sample: yeast; baseline: wild-type JUN-FOS pair; direction: higher = stronger binding
Setting: single substitutions, most at no-binding floor
Parent: JUN, bZIP domain (human); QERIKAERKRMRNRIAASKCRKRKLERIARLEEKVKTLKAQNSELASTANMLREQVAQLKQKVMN; partner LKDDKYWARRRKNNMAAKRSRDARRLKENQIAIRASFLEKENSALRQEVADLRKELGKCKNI
For `Q55M`, the binding fitness was -1.37 natural log.
`E32Y` has a binding fitness of -1.47 natural log.
The binding fitness of `E32Q` is reported as -1.49 natural log.
`L31Q` has a binding fitness of -1.46 natural log.
With `S47R` the binding fitness was -1.31 natural log.
For `N42I`, the binding fitness was -1.35 natural log.
With `E33V` the binding fitness was -1.44 natural log.
With `R30I` the binding fitness was -1.49 natural log.
With `E33F` the binding fitness was -1.47 natural log.

Study 2 — method: DHFR PCA, deep sequencing; sample: yeast; with: (+)-ABA 1.4 µM; baseline: wild-type fitted maximum; direction: higher = stronger binding
Target: ABI1, truncated, D143A, DHFR fusion (Arabidopsis thaliana)
Setting: methotrexate growth selection, single substitutions
Parent: PYL1, truncated, DHFR fusion (Arabidopsis thaliana); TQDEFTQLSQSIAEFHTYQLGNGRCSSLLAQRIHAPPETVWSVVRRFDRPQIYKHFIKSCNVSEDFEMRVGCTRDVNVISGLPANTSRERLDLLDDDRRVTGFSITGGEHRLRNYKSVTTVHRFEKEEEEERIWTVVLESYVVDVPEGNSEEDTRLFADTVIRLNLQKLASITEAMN
`R113T`: “relative binding score” 54%.
`D97N`: “relative binding score” 62.5%.
`E130L` — result for “relative binding score”: 41%.
Under “relative binding score”, `N114A` is recorded as 2.85%.
`S63T`: “relative binding score” 45.3%.
`D96I` — result for “relative binding score”: 3.19%.
`V145P` — result for “relative binding score”: -18.8%.
`L82C`: “relative binding score” 9.71%.
Under “relative binding score”, `S42W` is recorded as -1.64%.
`E89D` — result for “relative binding score”: 7.5%.
`V40S`: “relative binding score” 9.09%.
`C72W` — result for “relative binding score”: 11.9%.
`A35K` — result for “relative binding score”: -27%.
Under “relative binding score”, `I172C` is recorded as 7.89%.
`V43G`: “relative binding score” -18.5%.
`I172P`: “relative binding score” -13.5%.
For `I12T`, “relative binding score” read 3.1%.
`C60L`: “relative binding score” 5.35%.
For `H34C`, “relative binding score” read 68.5%.
For `R69M`, “relative binding score” read 44.1%.

Study 3 — target: CCND3, cyclin fold, Cln2 fusion (human); method: yeast growth competition, sequencing; sample: yeast; setting: weak parent motif; baseline: not given; direction: higher = stronger binding
Parent: CDAN1 docking peptide (human); RGARSQLFPPTEA
`RGARSQLFPATEA [P10A]` — result for “normalised enrichment score”: 0.199.
For `RGARSQLFAPTEA [P9A]`, “normalised enrichment score” read 0.414.
`RGAASQLFPPTEA [R4A]` — result for “normalised enrichment score”: 0.0814.
`AGARSQLFPPTEA [R1A]`: “normalised enrichment score” 0.0882.

Study 4 — method: RNA Bind-n-Seq; form: RNA; sample: in vitro; concentration: 365 nM; baseline: no-protein control; direction: higher = stronger binding
Target: RNA binding protein fox-1 homolog 2, RRM domain, GST-SBP tag (RBFOX2, Homo sapiens, UniProt O43251-10, residues 100-194)
Setting: natural RNA segment, single round, ends assumed
Constant ends, left off below: GGGAGUUCUACAGUCCGACGAUC … UGGAAUUCUCGGGUGCCAA
Target sequence (chain): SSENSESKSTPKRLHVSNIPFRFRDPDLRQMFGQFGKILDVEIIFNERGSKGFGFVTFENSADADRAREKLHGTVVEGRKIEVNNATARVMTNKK
For `ACUGUUCGUUAAAAUAAGCAUUCCCUUGACAGCACAGGAAGAAAAGCGAGGGAAAUGUAUGGAUUAUAUUAAAUGUGGGUUACUACACAAGAGGCCGAACAUUCCAAGUA`, “RBNS enrichment (R)” read 0.581.
`GCUUUGAUCCAUAUUUCUCACAGUGCUGUAUUAAAAAAUAGAACCUAAGGCAGAUAGCCACCUUUACAUUGUGAGUGUGUUUACCUUGUCUAAUGACGGAUAAUUCCUUA`: “RBNS enrichment (R)” 0.446.
For `GGUUAUGAGGCCUGUCAGGUCUAUGCACAGCAGGGACUCUGUCUUUGGUGAGCUUUCUCAGAGCCAUGGCUGCAGGCAUGUGAGCUGCGGGAACUUCCUCCUGAACUACC`, “RBNS enrichment (R)” read 1.1.
`CUGUUUGUUCCCACUUAUGUGAGUGACCCCAUCCAUCCAUGACCAGAGGAUUAUUUUCCUGCCUUGGCAGAGGAGGAGGAGUCAAGGGAGCAGGGCAGCUCUACCAGGCA`: “RBNS enrichment (R)” 0.62.
`UUUAAAGAUUUAUAUAAUGCAUCAAAAGCCUUAGAAUAAGAAAAGCUUUUUUUAAAUUGCUUUAUCUGUAUAUCUGAACUCUUGAAACUUAUAGCUAAAACACUAGGAUU` — result for “RBNS enrichment (R)”: 0.366.
`CCACGUUGAGUGAAGCUCAUCCCAAGCAAGGAGCCCCAGUCUCCCGAGCGGGUAGGAGAGUUUCUUGCAGAACGUGUUUUUUCUUUACACACAUUAUGGCUGUAAAUACC` — result for “RBNS enrichment (R)”: 0.353.
`GAAAAGGGUGCUCGGACUCUCUUAUACACAUGUGCUUUGUGUAAAUAAAUGUUUACAAUUUUAUAUUGAAGAUGGAAUAAGUGUUAGAGCGUCCAACUGUAUAUUUUUUA`: “RBNS enrichment (R)” 0.614.
For `GCGCCUCAGUGGGCAUCCUGGCCUCGGCUCCUUCUGCCUGUGUGAGCAUCUGUGCACCCACUCUUCAGCCCCUACCCAUCUGCCACCUUGGUCUGACUUGGCCAUGGGAG`, “RBNS enrichment (R)” read 1.66.
`UUGGGAAACUGUCCAGCCACGUUUCCAUUACUCGGAGCUCUCGGUUACCUUCAGACAUGGUGCCGUGUUGGGAGCAACCUCAGUGGGUUUGCACUACACUCACUCCGUGC` — result for “RBNS enrichment (R)”: 0.562.
Under “RBNS enrichment (R)”, `UUAGCUUAAAUUGUAACCUUUUGUUGUGUAUAUAAAACUUCCUUGGAAGAAAAUAACCUUAUUGUUUUCUUAAAGCUAAACAGAAUAGGAUUGGUACUCAUUAAUUAUGU` is recorded as 0.428.
For `GGCGUUUCAACUCAUAUAAUACAGAAAGAGUUUUGAAUGGGCAGAUUUCAAACUGAAUAUGGGUCCCCAAAUGUUCCCAGAGGGUCCUCCACACCCUCUGCCGACUACCA`, “RBNS enrichment (R)” read 0.409.
For `GUCUUCUGGCUACUAAGUGAUAAAAAGAACAUUAACAACCUUUAAUUACCUUCCUAGUGGGAACUUUUUCUACUUUACCUACAAGUUCUAUAUAUGUAGAAAUGAAUAAA`, “RBNS enrichment (R)” read 0.418.

Study 5 — method: RNA Bind-n-Seq; form: RNA; sample: in vitro; concentration: not given; baseline: input RNA pool; direction: higher = stronger binding
Target: RING finger protein unkempt homolog, zinc fingers 1-6, GST-SBP tag (UNK, Homo sapiens, UniProt Q9C0B0, residues 30-357)
Setting: RNA with constant flanks, human and mouse sites, ends assumed
Constant ends, left off below: GGGAGUUCUACAGUCCGACGAUC … CAACAGAGGAUUGAGCAUCA
Target sequence (chain): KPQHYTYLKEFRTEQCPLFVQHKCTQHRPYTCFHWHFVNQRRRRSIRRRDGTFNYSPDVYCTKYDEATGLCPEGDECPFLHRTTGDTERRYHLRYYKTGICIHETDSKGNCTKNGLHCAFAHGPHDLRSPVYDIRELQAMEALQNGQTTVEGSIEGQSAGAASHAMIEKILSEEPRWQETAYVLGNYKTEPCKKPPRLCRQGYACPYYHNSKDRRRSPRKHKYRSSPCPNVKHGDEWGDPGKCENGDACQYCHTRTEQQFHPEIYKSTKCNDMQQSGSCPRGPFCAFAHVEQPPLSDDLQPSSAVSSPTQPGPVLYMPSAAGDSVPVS
For `AUAAAGCAGCUGGUGUCUGGGGCAGACACACUGAACCUUGUUGCUGAAAUCCUCAAGUCUAUCGACAGAAUUAGUGAAGUUAAAGAUGAGGUGGACUCUUGAGACGCUCUACCUGCCACC`, the bound/input enrichment was 0.616 ratio.
With `AGAUUCCAGCUUAGAAAGUGCCACCAUAAUAACGACAAUUUGUAGAGAGACCAAAAAUAUUUCGAGAUCACCAUAAUGCCUUUGGUUAACCGGGAUGAAUAACCAACCGCAGGCUUGUAU` the bound/input enrichment was 1.2 ratio.
For `GGUUACAGGAAGUCCCUCACCCUCCCAAAAGCCACCCCCACUCCUAAGAGGAGGAUGGUCGCGUCCAUGCCCUGAGUCCACCCCGGGGAAGGUGACAGCAUUGCUUCUGUGUAAAUUAUG`, the bound/input enrichment was 0.214 ratio.
With `GGGUCCCCUUCCUGACUCUUGUGUUUGGAUCUUACAUGAUUGCUCACGGAUUCUUCAGCGUCUAUUCAAUGUGUGUUGAAACCAUUUUCAUCUGCUUCUGUGAAGACCUGGAGAGGAACG` the bound/input enrichment was 0.238 ratio.
`UUAUGGGGGAAGGGGGGGGUUCUUUAAAAUUUCUGUGGUUUGUGGCUUUUUCUUCCAUACAUUAGUUCCCACCAUCGCAUGCCCAGGGACCACUGCCUGGCAUUAUCGCAUGCUGGGAUC` gave a bound/input enrichment of 0.758 ratio.
With `UUCCCAAAGGCCUGGGAGCUUUUUGAAAAGAAAGAAAAAAGUGUGUUGGCUUUUUUUUUUUUUAGAAAGUUAGAAUUGUUUUUACCAAGAGUCUAUGUGGGGCUUGAUUCACCCUUCAUC` the bound/input enrichment was 2.22 ratio.
The bound/input enrichment of `UUCUCCAUAUACAACUUGAAUGAAGCUCUGAAUCAGGGAGAGACUGUGGAUCUGGAUGCCUUGAUGGCUGAUCUUUGCUCUAUAGAGCAGGAGCUCAGCAGCAUUGGUUCAGGAAACAGU` is reported as 0.209 ratio.
With `UAUCCUGGUGGGGAGUCAUACCAGGACCUGGUGCAGCGGCUGGAGCCUGUCAUCAUGGAGCUGGAACGUCAGGGCAAUGUCCUCGUCAUCUCCCACCAGGCUGUCAUGCGCUGCCUCCUG` the bound/input enrichment was 0.0618 ratio.
`AAGCAGGUCUGCGGAGAUUAUUUACUAUCUAGAAUGGAUGUUACUAGCUGCAUCUCUUACCGAAAUUUUGCAAGUUGUAUGGGAGACUCCCGUUUGUUGAAUAAAGUUGACGCUUAUAUU` gave a bound/input enrichment of 0.79 ratio.
For `AGACGAAGCUAUGGAGAUAUUUUGCAUAGAAUGAAGGAUCUCUGCAGAUACAUGAACAACUUUGAUAGUGAAGCACAUGCAAAAUAUAAAAACCAAGUGGUGUAUUCCACCAUGCUGGUC`, the bound/input enrichment was 0.195 ratio.
`ACUUGACUUCAGGCAGCAGAUUGUCUAGAAGCCUAAGGACAGCAAUUUCUCUGACAAGACAAAGUAGAUAUUUUAUACCAGGGGUUGGCAAACUACUGCCCACGGGCCGAAUUUGGCCCA` gave a bound/input enrichment of 1.26 ratio.

Excerpt of the above (study 2):
`C72W` — result for “relative binding score”: 11.9%.
Under “relative binding score”, `N114A` is recorded as 2.85%.
`C60L`: “relative binding score” 5.35%.
`D96I` — result for “relative binding score”: 3.19%.
`I172P`: “relative binding score” -13.5%.
For `I12T`, “relative binding score” read 3.1%.
`L82C`: “relative binding score” 9.71%.
`E89D` — result for “relative binding score”: 7.5%.
Under “relative binding score”, `S42W` is recorded as -1.64%.
